Published values of several laboratories.
Every numbered part comes from another study and shows a few of its results, in no order. Positions count from the first letter of the parent shown.

Set 1
Target: CCNE1, cyclin fold, Cln2 fusion (human)
Technique: yeast growth competition, sequencing
Medium: yeast
Setting: weak parent motif
Relative to: not given
Direction: higher = stronger binding
Starting sequence: SLBP docking peptide (human); ARYKRKLLINDFG
Under “normalised enrichment score”, `Y3G` is recorded as 0.272.
Under “normalised enrichment score”, `L8E` is recorded as 0.844.
For `L7A`, “normalised enrichment score” read -0.337.
Under “normalised enrichment score”, `N10T` is recorded as 1.04.
Under “normalised enrichment score”, `N10Q` is recorded as 0.474.
Under “normalised enrichment score”, `R2N` is recorded as 0.641.
`Y3F`: “normalised enrichment score” 0.0725.
`L8F` — result for “normalised enrichment score”: 2.92.
`Y3T` — result for “normalised enrichment score”: 0.384.
`G13N` — result for “normalised enrichment score”: 0.718.
Under “normalised enrichment score”, `N10H` is recorded as 0.858.
`D11A` — result for “normalised enrichment score”: 1.13.

Set 2
Substance: PhoQ, residues 284 288 289 292 302 303 SCCLKL
Technique: Sort-seq
Item: YFP reporter
Medium: E. coli
Setting: PhoQ-PhoP variant library
Together with: 10 µM Mg2+
Relative to: high Mg2+ state
Direction: higher = stronger signaling
The fold induction was 0.946 (PhoP, residues 12 14 15 18 19 LHTVL (Escherichia coli, UniProt P23836)).
It gave 8.4 for fold induction (PhoP, residues 12 14 15 18 19 TQAML (Escherichia coli, UniProt P23836)).
The fold induction was 7.18 (PhoP, residues 12 14 15 18 19 NQCAL (Escherichia coli, UniProt P23836)).

Set 3
Target: Prothrombin, mature alpha-thrombin (F2, Homo sapiens, UniProt P00734)
Technique: aptamer microarray, sandwich
Form: DNA with 2'F-ANA
Medium: in vitro
Tested at: 200 nM
Setting: whole 15-mer aptamer, many near background
Together with: Cy3 exosite-II aptamer, 400 nM
Direction: higher = stronger binding
Strand: GGTTGGTGTGGTTGG
`2'F-ANA at 2 3 4 5 7 9 10 11 12 13`: “mean fluorescence intensity” 57.5 a.u.
For `2'F-ANA at 2 4 5 6 7 8 9 10 11 14 15`, “mean fluorescence intensity” read 47 a.u.
`2'F-ANA at 1 4 7 8 11 15` — result for “mean fluorescence intensity”: 129 a.u.
For `2'F-ANA at 1 4 6 7 8 9 11 12 13 14`, “mean fluorescence intensity” read 54.9 a.u.
`2'F-ANA at 2 3 4 6 7 9 11 12 13 14` — result for “mean fluorescence intensity”: 197 a.u.
For `2'F-ANA at 4 8 9 11 13`, “mean fluorescence intensity” read 196 a.u.
Under “mean fluorescence intensity”, `2'F-ANA at 1 5 6 7 8 10 13 14` is recorded as 64.7 a.u.
Under “mean fluorescence intensity”, `2'F-ANA at 1 3 4 5 7 9 11 12 14` is recorded as 54.1 a.u.
`2'F-ANA at 1 5 7 9 15`: “mean fluorescence intensity” 60.3 a.u.
`2'F-ANA at 1 3 5 6 7 8 10 11 13` — result for “mean fluorescence intensity”: 47.2 a.u.
`2'F-ANA at 1 2 3 6 10 13 14 15`: “mean fluorescence intensity” 55.2 a.u.
Under “mean fluorescence intensity”, `2'F-ANA at 1 3 6 9 11 12 13` is recorded as 333 a.u.
For `2'F-ANA at 1 4 5 8 11 12 14 15`, “mean fluorescence intensity” read 47.5 a.u.

Set 4
Target: Interferon regulatory factor 5, full length, phosphomimetic (IRF5, Homo sapiens, UniProt Q13568-2, residues 1-514, K96S/S451D/S453D/S456D/S462D)
Technique: protein-binding microarray
Form: double-stranded DNA, one strand shown
Medium: in vitro
Tested at: 250 nM
Setting: 60-bp whole probe
Together with: salmon DNA 0.4 mg/ml
Relative to: random background probes
Direction: higher = stronger binding
Constant ends, left off below: GCCTAGCAC … GTCTTGATTCGCTTGACGCTGCTG
`TACAGGATGGTTTTCAGAGAGTGCTAG` has a log fluorescence of -0.0337 z-score.
For `TTATGTCTCCTTTTCCTTTAGTGCTAG`, the log fluorescence was 0.983 z-score.
For `TTAGGACTGGGTAACGGTTAGTGCTAG`, the log fluorescence was -0.295 z-score.
With `GACGGTATCGACTATCTGGACGTGCTA` the log fluorescence was 2.51 z-score.
The log fluorescence of `TTAGATCTCAGACTGGCTTAGTGCTAG` is reported as -0.332 z-score.
With `TTAGATAACAGTTTCGATTAGTGCTAG` the log fluorescence was 9.28 z-score.
`TTAGACTTCGGGTTTCGATTAGTGCTA` gave a log fluorescence of 5.96 z-score.
For `TCAAATCTCTCTTCACAACTGTGCTAG`, the log fluorescence was 0.738 z-score.
For `GTTGGGGCGGGGCGGGGTGGGTGCTAG`, the log fluorescence was 2.4 z-score.
`TTAGGACTGGGTCTCGGTAAGTGCTAG` gave a log fluorescence of -0.239 z-score.
For `TGAGGTTTCGGGTTTCGGTTAGTGCTA`, the log fluorescence was 9.25 z-score.
For `TTAGAACTGGGGTTTCGATTGGTGCTA`, the log fluorescence was 5.17 z-score.

For quick reference, copied from above (set 3):
`2'F-ANA at 1 5 7 9 15`: “mean fluorescence intensity” 60.3 a.u.
`2'F-ANA at 1 3 5 6 7 8 10 11 13` — result for “mean fluorescence intensity”: 47.2 a.u.
`2'F-ANA at 1 2 3 6 10 13 14 15`: “mean fluorescence intensity” 55.2 a.u.
Under “mean fluorescence intensity”, `2'F-ANA at 1 3 6 9 11 12 13` is recorded as 333 a.u.
For `2'F-ANA at 1 4 5 8 11 12 14 15`, “mean fluorescence intensity” read 47.5 a.u.
